Experimental data pooled from the literature.
Each numbered part is a random draw from the data of one study; scales do not carry over between parts. Substitutions count along the parent as printed.

Set 1 — technique: DHFR PCA, deep sequencing; medium: yeast; together with: (+)-ABA 2500 µM; baseline: wild-type fitted maximum; direction: higher = stronger binding
Target: ABI1, truncated, D143A, DHFR fusion (Arabidopsis thaliana)
Notes: methotrexate growth selection, single substitutions
Starting sequence: PYL1, truncated, DHFR fusion (Arabidopsis thaliana); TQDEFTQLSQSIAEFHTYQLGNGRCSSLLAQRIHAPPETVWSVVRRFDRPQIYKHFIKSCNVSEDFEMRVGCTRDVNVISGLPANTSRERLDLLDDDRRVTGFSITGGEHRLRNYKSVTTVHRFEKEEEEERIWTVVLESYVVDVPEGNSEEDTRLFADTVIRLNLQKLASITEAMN; partner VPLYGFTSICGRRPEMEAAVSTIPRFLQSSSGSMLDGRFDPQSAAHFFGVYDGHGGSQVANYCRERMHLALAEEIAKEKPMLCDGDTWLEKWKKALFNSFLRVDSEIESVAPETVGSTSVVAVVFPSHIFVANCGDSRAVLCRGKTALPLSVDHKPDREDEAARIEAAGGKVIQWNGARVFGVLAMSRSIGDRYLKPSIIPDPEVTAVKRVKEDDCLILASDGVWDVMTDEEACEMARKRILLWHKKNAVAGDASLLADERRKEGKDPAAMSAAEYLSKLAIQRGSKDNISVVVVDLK
Change	relative binding score
E129R	99.9%
L20Q	96.6%
T154E	23.2%
E14R	94.5%
S80F	87.6%
Q7S	96.3%
F124L	106%
T73S	94.3%

Set 2 — technique: protein-binding microarray; molecule type: double-stranded DNA, one strand shown; medium: in vitro; tested at: 2200 nM top; notes: 60-bp whole probe; together with: salmon DNA 0.4 mg/ml; baseline: random background probes; direction: higher = stronger binding; shared flanks, not repeated: GCCTAGCAC … GTCTTGATTCGCTTGACGCTGCTG
Target: Interferon regulatory factor 7, full length, phosphomimetic (IRF7, Homo sapiens, UniProt Q92985, residues 1-503, S471D/S472D/S475D/S476D/S477D/S483D/S484D/S487D)
Sequence of UniProt Q92985 (whole entry, unmodified, looked up): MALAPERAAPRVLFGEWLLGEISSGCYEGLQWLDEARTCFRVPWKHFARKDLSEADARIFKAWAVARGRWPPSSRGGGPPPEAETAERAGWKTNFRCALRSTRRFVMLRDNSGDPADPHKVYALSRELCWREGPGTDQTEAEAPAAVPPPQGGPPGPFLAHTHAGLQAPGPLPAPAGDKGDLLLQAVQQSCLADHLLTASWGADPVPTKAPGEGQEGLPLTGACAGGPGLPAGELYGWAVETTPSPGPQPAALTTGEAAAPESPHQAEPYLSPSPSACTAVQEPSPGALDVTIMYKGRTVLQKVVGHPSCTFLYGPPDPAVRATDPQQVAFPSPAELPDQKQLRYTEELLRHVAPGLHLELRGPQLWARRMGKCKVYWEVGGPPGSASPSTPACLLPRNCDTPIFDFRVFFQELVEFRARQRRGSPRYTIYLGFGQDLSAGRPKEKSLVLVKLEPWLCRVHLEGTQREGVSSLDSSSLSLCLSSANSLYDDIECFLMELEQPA
Strand	fitted relative affinity
GACGGTGTCGGTTCCGGGACGTGCTAG	-0.2 z-score
GACGGTATGGGGACTGGGGACGTGCTA	-0.0545 z-score
GACGGACTGGACTTGCGGGACGTGCTA	-0.886 z-score
TTGCTTTCCTTCTTGAACTCGTGCTAG	3.59 z-score
TTAGTTATCGGTTTCGGTTAGTGCTAG	7.94 z-score
AAGACTTTGCTCTGTGCGTAGGTGCTA	-0.27 z-score
GACGGACTGGACCTTCGGGACGTGCTA	-0.912 z-score

Set 3 — target: CCNE1, cyclin fold, Cln2 fusion (human); technique: yeast growth competition, sequencing; medium: yeast; notes: strong parent motif; baseline: not given; direction: higher = stronger binding
Starting sequence: RBL1 docking peptide (human); GSAKRRLFGEDPP
Change	normalised enrichment score
K4I	4.7
K4Q	1.6
P12G	5.68
E10C	4.81
S2H	6.65
L7D	-0.51
L7H	-0.597
G9N	7.3
R6E	1.88
P12Y	6.72
G1T	6.98
S2Q	5.93

Mixed results
Molecule	target	assay	system	conditions	how to read	quantity	value
PhoQ, residues 284 288 289 292 302 303 SSTLSG	PhoP, residues 12 14 15 18 19 HLGGL (Escherichia coli, UniProt P23836)	Sort-seq, refers to: YFP reporter	E. coli	PhoQ-PhoP variant library, together with: 10 µM Mg2+	baseline: high Mg2+ state, higher = stronger signaling	fold induction	11.1

Some of these lines once more (set 1):
Change	relative binding score
E129R	99.9%
L20Q	96.6%
